# Published values collected from several papers.
# Each line is one published result; not all experiments were run side by side. ± marks the error that the study gave.
# FGFR3: Fibroblast growth factor receptor 3 (FGFR3, Homo sapiens, UniProt P22607)
# Chain of UniProt P22607 (whole entry, looked up): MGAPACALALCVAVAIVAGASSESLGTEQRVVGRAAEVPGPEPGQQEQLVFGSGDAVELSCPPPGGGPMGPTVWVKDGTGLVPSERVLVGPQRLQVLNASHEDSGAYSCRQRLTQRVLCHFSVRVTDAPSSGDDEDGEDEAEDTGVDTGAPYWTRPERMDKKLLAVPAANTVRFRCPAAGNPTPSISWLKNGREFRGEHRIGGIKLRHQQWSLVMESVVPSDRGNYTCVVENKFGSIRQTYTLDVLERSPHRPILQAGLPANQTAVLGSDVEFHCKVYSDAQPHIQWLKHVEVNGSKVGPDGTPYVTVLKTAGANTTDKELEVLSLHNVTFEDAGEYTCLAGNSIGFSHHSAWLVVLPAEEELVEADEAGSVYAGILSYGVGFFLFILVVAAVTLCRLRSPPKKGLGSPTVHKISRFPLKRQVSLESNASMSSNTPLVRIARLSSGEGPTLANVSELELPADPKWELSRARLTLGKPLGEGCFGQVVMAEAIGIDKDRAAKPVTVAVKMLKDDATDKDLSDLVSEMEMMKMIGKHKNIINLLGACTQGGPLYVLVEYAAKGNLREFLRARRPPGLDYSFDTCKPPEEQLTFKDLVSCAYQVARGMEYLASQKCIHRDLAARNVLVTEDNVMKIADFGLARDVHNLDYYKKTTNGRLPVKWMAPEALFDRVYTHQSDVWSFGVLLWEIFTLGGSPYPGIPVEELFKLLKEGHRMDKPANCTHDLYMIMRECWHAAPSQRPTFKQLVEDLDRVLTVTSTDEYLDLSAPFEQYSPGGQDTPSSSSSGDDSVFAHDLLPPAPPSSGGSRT
# Chain of UniProt Q07820 (whole entry, unmodified, looked up): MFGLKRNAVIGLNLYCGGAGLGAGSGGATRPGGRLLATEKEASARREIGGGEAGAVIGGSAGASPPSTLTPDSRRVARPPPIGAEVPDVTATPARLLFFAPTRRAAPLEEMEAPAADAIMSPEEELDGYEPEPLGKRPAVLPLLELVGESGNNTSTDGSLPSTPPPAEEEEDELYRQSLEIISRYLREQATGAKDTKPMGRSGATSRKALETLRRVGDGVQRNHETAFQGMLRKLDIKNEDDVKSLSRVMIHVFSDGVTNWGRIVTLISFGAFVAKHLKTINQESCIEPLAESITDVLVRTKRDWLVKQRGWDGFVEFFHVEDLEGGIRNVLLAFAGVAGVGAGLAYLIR
# Chain of UniProt P26038 (whole entry, looked up): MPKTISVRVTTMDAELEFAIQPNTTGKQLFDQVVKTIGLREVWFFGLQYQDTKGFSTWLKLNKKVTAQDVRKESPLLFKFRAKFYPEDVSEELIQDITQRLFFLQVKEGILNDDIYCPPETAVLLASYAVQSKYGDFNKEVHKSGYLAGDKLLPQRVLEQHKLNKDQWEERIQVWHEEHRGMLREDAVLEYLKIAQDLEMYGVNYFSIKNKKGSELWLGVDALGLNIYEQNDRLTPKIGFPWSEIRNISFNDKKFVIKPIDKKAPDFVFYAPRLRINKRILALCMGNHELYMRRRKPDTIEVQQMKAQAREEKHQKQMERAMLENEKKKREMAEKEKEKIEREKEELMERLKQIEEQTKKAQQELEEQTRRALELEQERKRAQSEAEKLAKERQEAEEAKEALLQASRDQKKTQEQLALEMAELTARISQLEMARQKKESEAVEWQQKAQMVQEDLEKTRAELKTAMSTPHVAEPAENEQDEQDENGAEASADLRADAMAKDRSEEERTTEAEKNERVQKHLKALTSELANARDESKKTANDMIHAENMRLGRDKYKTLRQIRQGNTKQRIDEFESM
# Chain of UniProt O66465 (whole entry, unmodified, looked up): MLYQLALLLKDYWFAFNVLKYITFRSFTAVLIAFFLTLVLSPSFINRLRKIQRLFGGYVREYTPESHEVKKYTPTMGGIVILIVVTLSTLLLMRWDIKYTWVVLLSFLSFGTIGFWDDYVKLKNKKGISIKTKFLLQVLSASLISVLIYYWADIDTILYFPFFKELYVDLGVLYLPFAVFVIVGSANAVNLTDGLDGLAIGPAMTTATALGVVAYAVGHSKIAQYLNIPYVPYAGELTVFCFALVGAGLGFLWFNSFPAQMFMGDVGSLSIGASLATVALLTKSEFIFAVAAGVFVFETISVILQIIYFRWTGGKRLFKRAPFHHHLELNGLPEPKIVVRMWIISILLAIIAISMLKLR
# Chain of UniProt P15328 (whole entry, looked up): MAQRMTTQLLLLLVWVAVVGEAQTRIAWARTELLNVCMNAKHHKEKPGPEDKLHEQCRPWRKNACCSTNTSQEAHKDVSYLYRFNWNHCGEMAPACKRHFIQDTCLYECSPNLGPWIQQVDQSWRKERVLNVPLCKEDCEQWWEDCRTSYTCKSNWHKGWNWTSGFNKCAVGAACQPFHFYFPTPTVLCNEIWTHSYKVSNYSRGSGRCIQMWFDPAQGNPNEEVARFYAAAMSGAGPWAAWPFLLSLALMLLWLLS
# Chain of UniProt O87605 (whole entry, unmodified, looked up): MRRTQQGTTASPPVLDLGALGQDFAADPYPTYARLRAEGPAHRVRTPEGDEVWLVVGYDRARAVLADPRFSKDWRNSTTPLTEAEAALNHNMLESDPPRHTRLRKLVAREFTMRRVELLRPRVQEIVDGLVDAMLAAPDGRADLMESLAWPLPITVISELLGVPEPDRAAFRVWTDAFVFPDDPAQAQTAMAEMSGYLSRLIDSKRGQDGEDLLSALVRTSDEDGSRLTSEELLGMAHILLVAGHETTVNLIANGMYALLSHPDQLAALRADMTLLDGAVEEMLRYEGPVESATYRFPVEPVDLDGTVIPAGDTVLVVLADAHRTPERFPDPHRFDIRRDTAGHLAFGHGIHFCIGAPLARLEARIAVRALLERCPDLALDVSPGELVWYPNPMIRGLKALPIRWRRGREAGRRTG
# Chain of UniProt P02769 (whole entry, looked up): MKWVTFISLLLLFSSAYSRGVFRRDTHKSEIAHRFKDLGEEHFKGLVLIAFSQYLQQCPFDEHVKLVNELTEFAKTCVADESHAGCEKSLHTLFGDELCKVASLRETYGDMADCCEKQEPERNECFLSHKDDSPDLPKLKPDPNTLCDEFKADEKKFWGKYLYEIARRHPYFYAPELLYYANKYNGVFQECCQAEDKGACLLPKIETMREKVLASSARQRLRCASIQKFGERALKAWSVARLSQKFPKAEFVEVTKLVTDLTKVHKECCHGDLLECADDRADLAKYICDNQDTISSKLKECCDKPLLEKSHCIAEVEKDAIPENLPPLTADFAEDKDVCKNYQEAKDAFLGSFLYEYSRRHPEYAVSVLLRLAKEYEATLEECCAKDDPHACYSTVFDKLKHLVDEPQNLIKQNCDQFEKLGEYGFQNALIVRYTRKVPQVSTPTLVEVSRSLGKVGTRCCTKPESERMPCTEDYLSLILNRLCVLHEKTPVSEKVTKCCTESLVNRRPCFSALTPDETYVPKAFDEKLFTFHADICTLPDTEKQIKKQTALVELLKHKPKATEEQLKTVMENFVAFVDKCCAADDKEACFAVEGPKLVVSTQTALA
# Chain of UniProt P46587 (whole entry, looked up): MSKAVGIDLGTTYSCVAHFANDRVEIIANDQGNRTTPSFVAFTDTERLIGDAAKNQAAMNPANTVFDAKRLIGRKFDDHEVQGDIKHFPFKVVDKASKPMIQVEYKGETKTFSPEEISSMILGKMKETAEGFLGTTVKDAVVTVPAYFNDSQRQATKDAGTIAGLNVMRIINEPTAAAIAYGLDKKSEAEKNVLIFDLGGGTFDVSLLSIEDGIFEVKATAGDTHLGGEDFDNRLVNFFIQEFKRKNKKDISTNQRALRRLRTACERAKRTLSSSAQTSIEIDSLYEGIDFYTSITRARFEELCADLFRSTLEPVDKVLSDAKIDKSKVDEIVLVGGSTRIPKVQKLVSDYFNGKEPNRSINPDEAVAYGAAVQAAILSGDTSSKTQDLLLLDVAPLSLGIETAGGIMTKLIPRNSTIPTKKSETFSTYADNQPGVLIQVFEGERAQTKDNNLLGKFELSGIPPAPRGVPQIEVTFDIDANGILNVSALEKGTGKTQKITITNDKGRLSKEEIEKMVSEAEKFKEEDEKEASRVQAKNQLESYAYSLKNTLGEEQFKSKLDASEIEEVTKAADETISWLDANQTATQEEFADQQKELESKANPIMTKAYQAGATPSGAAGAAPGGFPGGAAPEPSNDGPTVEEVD
# Chain of UniProt A0A109QYD3 (whole entry, looked up): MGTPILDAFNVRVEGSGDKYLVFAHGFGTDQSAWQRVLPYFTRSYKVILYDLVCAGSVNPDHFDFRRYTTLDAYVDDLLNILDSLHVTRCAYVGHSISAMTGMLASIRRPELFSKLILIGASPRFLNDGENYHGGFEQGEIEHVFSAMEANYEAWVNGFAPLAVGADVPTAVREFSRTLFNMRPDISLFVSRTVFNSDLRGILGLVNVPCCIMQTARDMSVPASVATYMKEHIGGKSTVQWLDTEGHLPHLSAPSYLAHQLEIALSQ
# Chain of UniProt P22629 (whole entry, looked up): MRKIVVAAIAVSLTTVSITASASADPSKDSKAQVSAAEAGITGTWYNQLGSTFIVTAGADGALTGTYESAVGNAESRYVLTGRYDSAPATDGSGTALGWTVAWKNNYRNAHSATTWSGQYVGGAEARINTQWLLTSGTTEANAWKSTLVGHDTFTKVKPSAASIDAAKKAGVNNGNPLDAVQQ
# Chain of UniProt P27467 (whole entry, looked up): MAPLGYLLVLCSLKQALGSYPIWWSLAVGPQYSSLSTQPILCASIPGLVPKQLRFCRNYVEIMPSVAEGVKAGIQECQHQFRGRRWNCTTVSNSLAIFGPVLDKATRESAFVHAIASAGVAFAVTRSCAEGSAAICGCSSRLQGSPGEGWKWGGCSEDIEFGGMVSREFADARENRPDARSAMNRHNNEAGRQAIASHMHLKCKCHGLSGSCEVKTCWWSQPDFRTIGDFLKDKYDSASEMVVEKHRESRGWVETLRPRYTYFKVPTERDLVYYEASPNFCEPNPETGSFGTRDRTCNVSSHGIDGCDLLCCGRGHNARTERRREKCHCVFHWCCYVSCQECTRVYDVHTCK
Compound,target,assay,system,conditions,Kd [nM]
C[C@H](NC(=O)[C@H](Cc1c[nH]cn1)NC(=O)[C@H](CO)NC(=O)[C@H](CC(=O)O)NC(=O)CCCC[C@@H]1SC[C@@H]2NC(=O)N[C@@H]21)C(=O)N[C@@H](CCCCN)C(=O)N[C@@H](CCCNC(=N)N)C(=O)N[C@@H](Cc1c[nH]cn1)C(=O)N[C@@H](Cc1c[nH]cn1)C(=O)NCC(=O)N[C@@H](Cc1ccc(O)cc1)C(=O)N[C@@H](CCCCN)C(=O)N[C@@H](CCCNC(=N)N)C(=O)N[C@@H](CCCCN)C(=O)N[C@@H](Cc1ccccc1)C(=O)N[C@@H](Cc1c[nH]cn1)C(=O)N[C@@H](CCC(=O)O)C(=O)N[C@@H](CCCCN)C(=O)N[C@@H](Cc1c[nH]cn1)C(=O)N[C@@H](Cc1c[nH]cn1)C(=O)N[C@@H](CO)C(=O)N[C@@H](Cc1c[nH]cn1)C(=O)N[C@@H](CCCNC(=N)N)C(=O)NCC(=O)N[C@@H](Cc1ccc(O)cc1)C(=O)O,"Heat shock protein SSA2 (SSA2, Candida albicans, UniProt P46587)",FPLC gel filtration,,"pH 7.4, with: ATP 1 mM",400 ± 100
N=C(N)Nc1ccc(-c2nc3ccc(-c4ccc5nc(-c6ccc(NC(=N)N)cc6)[nH]c5c4)cc3[nH]2)cc1,Cy5-labelled r(CUG)12 RNA,"binding, microscale thermophoresis",,,40 ± 6
CC(C)[C@@H]1NC(=O)[C@H](CCC(N)=O)NC(=O)[C@@H]2CCCN2C(=O)[C@H](Cc2c[nH]cn2)NC(=O)CNC(=O)[C@@H](N)CSSC[C@@H](C(=O)NCC(N)=O)NC(=O)[C@@H]2CCCN2C1=O,"Streptavidin (Streptomyces avidinii, UniProt P22629)",,,,19400
CC[C@H](C)[C@H](NC(=O)[C@H](CS)NC(=O)[C@H](CCC(N)=O)NC(=O)[C@H](CC(C)C)NC(=O)[C@H](CCCCN)NC(=O)[C@H](CCCNC(=N)N)NC(=O)[C@H](C)NC(=O)[C@@H](NC(=O)[C@H](CCC(N)=O)NC(=O)[C@@H](NC(=O)[C@H](CCC(=O)O)NC(=O)[C@H](C)NC(=O)[C@H](CCC(N)=O)NC(=O)[C@@H](N)Cc1c[nH]cn1)C(C)C)[C@@H](C)CC)C(=O)N[C@@H](C)C(=O)N[C@@H](CC(=O)O)C(=O)N[C@@H](CCC(N)=O)C(=O)N[C@@H](Cc1ccccc1)C(=O)N[C@@H](Cc1c[nH]cn1)C(=O)N[C@@H](CCCNC(=N)N)C(=O)N[C@@H](CC(C)C)C(=O)N[C@@H](Cc1c[nH]cn1)C(=O)N[C@H](C(=O)N[C@@H](CCC(N)=O)C(=O)N[C@@H](CCC(N)=O)C(=O)O)C(C)C,"MCL1 (Homo sapiens, UniProt Q07820, A227D)",fluorescence polarization,,fluorescently labelled compound,49
CC[C@H]1OC(=O)[C@H](C)[C@@H](OC(=O)CN(C)C)[C@@H](C)C[C@@H](C)C(=O)/C=C/[C@H]1C,"pikC (Streptomyces venezuelae, UniProt O87605, D50N/H238A)","substrate, spectroscopic equilibrium binding",,D50N/H238A double mutant,11000 ± 560
Nc1nc2ncc(CNc3ccc(C(=O)N[C@@H](CCC(=O)NCCOCCOCCNC(=O)CN4CCN5CCN(CC4)CC(=O)[O][Al]([F])[O]C(=O)C5)C(=O)O)cc3)nc2c(=O)[nH]1 [fluorine-18 labelled],"FOLR1 (Homo sapiens, UniProt P15328)",radioligand saturation binding,KB xenograft homogenate,,0.7
CC[C@H](C)[C@H](NC(=O)[C@H](CO)NC(=O)[C@H](CO)NC(=O)[C@H](CCC(=O)O)NC(=O)[C@H](CCC(=O)O)NC(=O)[C@H](CCCCN)NC(=O)[C@H](CO)NC(=O)[C@@H](NC(=O)[C@H](CO)NC(=O)[C@H](CC(C)C)NC(=O)[C@H](Cc1ccccc1)NC(=O)[C@H](CCCNC(=N)N)NC(=O)[C@H](C)NC(=O)[C@H](Cc1ccccc1)NC(=O)[C@H](Cc1ccccc1)NC(=O)[C@@H]1CCCN1C(=O)[C@H](CC(C)C)NC(=O)[C@H](C)NC(=O)[C@H](CCCCN)NC(=O)CNC(=O)[C@H](CCC(N)=O)NC(=O)[C@H](CCC(N)=O)NC(=O)[C@H](CC(=O)O)NC(=O)[C@H](CC(N)=O)NC(=O)[C@@H]1CCCN1C(=O)[C@H](Cc1ccc(O)cc1)NC(=O)[C@H](C)NC(=O)[C@@H](N)CCSC)C(C)C)C(=O)N[C@@H](CCCCN)C(=O)N[C@@H](CO)C(=O)N1CCC[C@H]1C(=O)N[C@@H](CO)C(=O)N1CCC[C@H]1C(=O)N[C@@H](CC(=O)O)C(=O)N[C@@H](Cc1c[nH]cn1)C(=O)O,"uncharacterized protein (Microcystis aeruginosa MRC, UniProt B2G3D0)",isothermal titration calorimetry,,"pH 8.0, 25 °C",146 ± 52
CC[C@H](C)[C@H](NC(=O)[C@@H]1CSCc2cccc(c2)CSC[C@H](NC(=O)[C@@H](NC(=O)[C@H](Cc2ccc(O)cc2)NC(=O)[C@H](CO)NC(=O)[C@H](Cc2ccccc2)NC(=O)[C@H](CCSC)NC(C)=O)C(C)C)C(=O)N[C@@H]([C@@H](C)O)C(=O)N[C@@H](CC(C)C)C(=O)N[C@@H](CCCCN)C(=O)N[C@@H](CO)C(=O)N1)C(=O)N[C@@H](C)C(=O)N[C@@H](CCSC)C(=O)N[C@@H](Cc1c[nH]cn1)C(=O)NCC(=O)N[C@@H](CO)C(=O)NCC(=O)N[C@@H](CO)C(=O)NCC(=O)N[C@@H](CO)C(=O)N[C@@H](CC(=O)O)C(=O)N[C@@H](Cc1ccc(O)cc1)C(=O)N[C@@H](CCCCN)C(=O)N[C@@H](CC(=O)O)C(=O)N[C@@H](CC(=O)O)C(=O)N[C@@H](CC(=O)O)C(=O)N[C@@H](CC(=O)O)C(=O)N[C@@H](CCCCN)C(N)=O,FGFR3,"binding, BLI",,,13.4
CC[C@H](C)[C@@H]1NC(=O)[C@H](Cc2ccccc2)NC(=O)[C@H](Cc2ccc(O)cc2)NC(=O)[C@H](Cc2c[nH]c3ccccc23)NC(=O)[C@H](Cc2c[nH]c3ccccc23)NC(=O)[C@H](C)NC(=O)[C@H](Cc2ccc(O)cc2)NC(=O)[C@H](CC(C)C)NC(=O)[C@H](Cc2c[nH]cn2)NC(=O)[C@H](CC(=O)O)NC(=O)[C@H](Cc2ccc(O)cc2)NC(=O)[C@H](C(C)C)NC(=O)[C@H](CC(C)C)NC(=O)[C@H](Cc2ccc(O)cc2)NC(=O)CSC[C@@H](C(=O)NCC(N)=O)NC(=O)[C@H](C)NC1=O,"Protein Wnt-3a, with afamin (Mus musculus, UniProt P27467)","binding, SPR single cycle kinetics",immobilised mWnt3a–human afamin complex,25 °C,110
CSCC[C@H](NC(C)=O)C(=O)N[C@H]1CSCc2cc3cc(c2)CSC[C@@H](C(=O)N[C@H](C(=O)N[C@@H](C)C(=O)N[C@@H](Cc2ccc(O)cc2)C(=O)N[C@@H](CCCCN)C(=O)N[C@@H](Cc2ccc(O)cc2)C(=O)NCC(=O)N[C@@H](CO)C(=O)NCC(=O)N[C@@H](CO)C(=O)NCC(=O)N[C@@H](CO)C(=O)N[C@@H](CC(=O)O)C(=O)N[C@@H](Cc2ccc(O)cc2)C(=O)N[C@@H](CCCCN)C(=O)N[C@@H](CC(=O)O)C(=O)N[C@@H](CC(=O)O)C(=O)N[C@@H](CC(=O)O)C(=O)N[C@@H](CC(=O)O)C(=O)N[C@@H](CCCCN)C(N)=O)[C@@H](C)O)NC(=O)[C@H](Cc2ccccc2)NC(=O)[C@H](CCCCN)NC(=O)[C@H](CSC3)NC(=O)[C@H](Cc2ccccc2)NC(=O)[C@H](CC(N)=O)NC(=O)[C@H](CC(C)C)NC(=O)[C@H]([C@@H](C)O)NC1=O,FGFR3,"binding, BLI",,,6.7
CC(C)CC(NC(=O)C(NC(=O)NC(C(=O)O)C(C)C)C1CCNC(=N)N1)C(=O)NCCCNC(C(=O)O)C(OC1OC(CN)C(O)C1O)C1OC(n2ccc(=O)[nH]c2=O)C(O)C1O (stereo not drawn),"mraY (Aquifex aeolicus, UniProt O66465, Q305A)","binding, ITC",,,117
CC1=C[C@@H](O/C=C2/C(=O)O[C@H]3c4ccccc4C[C@@H]23)OC1=O,"RMS3 (Lathyrus oleraceus, UniProt A0A109QYD3)","binding, fluorescence",,,35900
NCC(=O)NCC(=O)N[C@@H](Cc1c[nH]cn1)C(=O)O,HCV IV RNA,fluorescein-labelled RNA titration,,1 mM TCEP,260000 ± 80000
O=C(O[C@@H]1Cc2c(O)cc(O)cc2O[C@@H]1c1cc(O)c(O)c(O)c1)c1cc(O)c(O)c(O)c1,"Albumin (ALB, Bos taurus, UniProt P02769)","binding, fluorescence quenching",,"pH 7.4, with: BSA 3 µM",217
CC(C)C[C@H](NC(=O)[C@H](CCC(=O)O)NC(=O)[C@H](Cc1ccccc1)NC(=O)[C@H](C)NC(=O)[C@H](CC(=O)O)NC(=O)[C@@H]1CCCN1C(=O)[C@H](Cc1ccc(O)cc1)NC(=O)[C@H](CCCCN)NC(=O)[C@H](Cc1c[nH]c2ccccc12)NC(=O)[C@H](CO)NC(=O)CNC(=O)CNC(=O)[C@H](CC(=O)O)NC(=O)[C@@H](N)CCC(=O)O)C(=O)N[C@@H](CO)C(=O)NCC(=O)O,"Moesin (Homo sapiens, UniProt P26038)","binding, ITC",,,~260
